Measurements pooled from the literature.
Each numbered part is a random draw from the data of one study; scales do not carry over between parts. Positions count from the first letter of the parent shown.

Set 1
Target: CREB3L4, bZIP domain (human)
Technique: DHFR protein complementation
Sample: yeast
Setting: single substitutions, most at no-binding floor
Baseline: wild-type JUN-FOS pair
Reading: higher = stronger binding
Starting sequence: JUN, bZIP domain (human); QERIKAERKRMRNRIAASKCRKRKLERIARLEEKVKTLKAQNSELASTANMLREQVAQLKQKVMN; partner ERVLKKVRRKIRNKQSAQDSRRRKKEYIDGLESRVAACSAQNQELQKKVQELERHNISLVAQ
`E32C` has a binding fitness of -1.24 natural log.
`Q55W` gave a binding fitness of -1.51 natural log.
`A29F` gave a binding fitness of -1.41 natural log.
`K39I` gave a binding fitness of -1.6 natural log.
`K36T` has a binding fitness of -1.3 natural log.
For `S43L`, the binding fitness was -1.49 natural log.
`E32H` has a binding fitness of -1.49 natural log.
`S47H` has a binding fitness of -1.49 natural log.
`L38W` has a binding fitness of -1.46 natural log.
For `S47N`, the binding fitness was -1.27 natural log.
The binding fitness of `S43V` is reported as -1.41 natural log.
`R30W` gave a binding fitness of -1.5 natural log.
`M51L` gave a binding fitness of -1.38 natural log.
With `K39W` the binding fitness was -1.48 natural log.
For `S43D`, the binding fitness was -1.43 natural log.
`Q55Y` has a binding fitness of -1.37 natural log.
The binding fitness of `T37G` is reported as -1.46 natural log.

Set 2
Target: CCNE1, cyclin fold, Cln2 fusion (human)
Technique: yeast growth competition, sequencing
Sample: yeast
Setting: strong parent motif
Baseline: not given
Reading: higher = stronger binding
Starting sequence: CDKN1B docking peptide (human); PSACRNLFGPVDH
Under “normalised enrichment score”, `P1R` is recorded as 3.44.
Under “normalised enrichment score”, `R5G` is recorded as 0.271.
`V11M` — result for “normalised enrichment score”: 2.46.
Under “normalised enrichment score”, `C4N` is recorded as 0.609.
Under “normalised enrichment score”, `H13R` is recorded as 3.51.
For `P10W`, “normalised enrichment score” read 1.67.
Under “normalised enrichment score”, `G9I` is recorded as 0.595.
Under “normalised enrichment score”, `R5Q` is recorded as 0.248.
`L7V` — result for “normalised enrichment score”: 0.617.
`L7N` — result for “normalised enrichment score”: -0.501.
`D12Y`: “normalised enrichment score” 2.63.
Under “normalised enrichment score”, `D12L` is recorded as 2.82.
Under “normalised enrichment score”, `D12C` is recorded as 2.67.
`H13S`: “normalised enrichment score” 2.71.
`V11F` — result for “normalised enrichment score”: 4.
Under “normalised enrichment score”, `P1M` is recorded as 3.84.
`G9V` — result for “normalised enrichment score”: 0.783.
`L7P`: “normalised enrichment score” -0.209.
`S2P` — result for “normalised enrichment score”: 2.67.
Under “normalised enrichment score”, `V11Q` is recorded as 2.55.
Under “normalised enrichment score”, `A3V` is recorded as 5.74.
`G9M`: “normalised enrichment score” 1.26.
Under “normalised enrichment score”, `L7F` is recorded as 0.813.
For `A3L`, “normalised enrichment score” read 1.15.
`H13F` — result for “normalised enrichment score”: 3.84.

Set 3
Target: Fragile X messenger ribonucleoprotein 1, C-terminal low-complexity region (Fmr1, Mus musculus, UniProt P35922)
Technique: RNA Bind-n-Seq
Molecule type: RNA
Sample: in vitro
Tested at: 200 nM
Setting: whole 134-nt RNA, ends assumed
Together with: 150 mM LiCl
Baseline: input library
Reading: higher = stronger binding
Each molecule: 7-deaza-guanosine replaces G
All sequences stand within: GGGAGUUCUACAGUCCGACGAUC … UGGAAUUCUCGGGUGUCAAGG
`GUCCUGUGCUACACAUCGUAUGUACCGAAUCAAAGUGUGUGUGUGUGUGUGUGUGUAAAAAAGUAUUAUGUUACGCCGUUCGGAUCUGCA` gave a log2 enrichment of -0.547.
With `GUCCUGUGCUACACAUCGUAUGUACCGAAUCGGGUUUUUGGGUUUUUGGGGUUUUUGGAAAGUAUUAUGUUACGCCGUUCGGAUCUGCAC` the log2 enrichment was -0.729.
`GCAGGAAGUAAAAACAAAUGGAAAUACUUCGGAUAGUGGCAGGGGUGGGGGUUGCUAAGGAAAGGGUGGGAUGGGAGUGGGUAAAGAGUU` has a log2 enrichment of 1.41.
The log2 enrichment of `UAACUUUAGAGGAGGGUCUGAUGGAUAUGGCAGUGGACGUGGAUUUGGGGAUGGCUAUAAUGGGUAUGGAGGAGGACCUGGAGGUGGCAA` is reported as 0.232.
`CAAGUCCUGUGCUACACAUCGUAUGUACCGAAUCGGGGAAAGGGAAAGGAAAGGGAAAGUAUUAUGUUACGCCGUUCGGAUCUGCACUUC` has a log2 enrichment of -0.487.
The log2 enrichment of `CCUGUGCUACACAUCGUAUGUACCGAAUCGGGUUUUUUUGGUUUUUUUGGUUUUUUUGGGAAAGUAUUAUGUUACGCCGUUCGGAUCUGC` is reported as -1.13.
The log2 enrichment of `CAAGUCCUGUGCUACACAUCGUAUGUACCGAAUCGGGUUUUGGUUUUGGGUUUUGGAAAGUAUUAUGUUACGCCGUUCGGAUCUGCACUU` is reported as -2.08.
With `CUGUGCUACACAUCGUAUGUACCGAAUCGGGCCCCCCCGGCCCCCCCGGGCCCCCCCGGGGAAAGUAUUAUGUUACGCCGUUCGGAUCUG` the log2 enrichment was 0.233.
For `GUCCUGUGCUACACAUCGUAUGUACCGAAUCGGAAAAAGGGGAAAAAGGGAAAAAGGGGAAAGUAUUAUGUUACGCCGUUCGGAUCUGCA`, the log2 enrichment was 0.541.
For `GCUGUUGGAGUGGAUCCGCCGCACAAUCCCGUGGCUGGAGAACCGGGUGCCCGAGAACACCAUGCAUGCCAUGCAACAGAAGCUGGAGGA`, the log2 enrichment was -3.99.
For `CCUGUGCUACACAUCGUAUGUACCGAAUCGGGGUUUUUUGGGUUUUUUGGGUUUUUUGGGAAAGUAUUAUGUUACGCCGUUCGGAUCUGC`, the log2 enrichment was -1.17.

Mixed results
With `PhoQ, residues 284 288 289 292 302 303 TYGVAM` the fold induction was 31.8 (PhoP, residues 12 14 15 18 19 NQFFI (Escherichia coli, UniProt P23836); Sort-seq, measured: YFP reporter; E. coli; PhoQ-PhoP variant library, together with: 10 µM Mg2+; baseline: high Mg2+ state, higher = stronger signaling).

For quick reference, copied from above (set 2):
Under “normalised enrichment score”, `P1R` is recorded as 3.44.
Under “normalised enrichment score”, `D12C` is recorded as 2.67.
`H13F` — result for “normalised enrichment score”: 3.84.
`L7N` — result for “normalised enrichment score”: -0.501.
